Measured values collected from several papers.
Parts stem from different laboratories: compare values within a part only. Positions count from the first letter of the parent shown.

Series 1
Target: CCNB2, cyclin fold, Cln2 fusion (human)
Method: yeast growth competition, sequencing
Sample: yeast
Setting: weak parent motif
Reference: not given
Direction: higher = stronger binding
Starting sequence: ORC1 docking peptide (human); PRARKRLELGNLG
| Change | normalised enrichment score |
| --- | --- |
| K5Q | 0.325 |
| G10C | 0.398 |
| R6D | 0.227 |
| R6P | -0.0572 |
| E8D | 1.31 |
| L7M | 0.329 |
| P1M | 0.249 |

Series 2
Target: Prothrombin, mature alpha-thrombin (F2, Homo sapiens, UniProt P00734)
Method: aptamer microarray, sandwich
Form: DNA with 2'F-ANA
Sample: in vitro
Tested at: 200 nM
Setting: whole 15-mer aptamer, many near background
Added: Cy3 exosite-II aptamer, 400 nM
Direction: higher = stronger binding
Sequence: GGTTGGTGTGGTTGG
| Modification | mean fluorescence intensity |
| --- | --- |
| 2'F-ANA at 2 3 4 5 6 9 10 11 12 13 14 15 | 61.7 a.u. |
| 2'F-ANA at 2 3 5 7 10 11 13 15 | 72.4 a.u. |
| 2'F-ANA at 2 3 4 6 7 9 10 | 215 a.u. |
| 2'F-ANA at 2 3 4 5 6 8 11 12 14 | 55.1 a.u. |
| 2'F-ANA at 1 2 3 4 8 9 10 12 13 15 | 70.2 a.u. |
| 2'F-ANA at 1 3 4 5 6 10 12 | 49.2 a.u. |
| 2'F-ANA at 3 4 5 6 12 | 218 a.u. |
| 2'F-ANA at 10 11 15 | 157 a.u. |
| 2'F-ANA at 1 2 3 6 8 9 14 15 | 175 a.u. |
| 2'F-ANA at 1 3 5 9 10 11 12 | 48.1 a.u. |
| 2'F-ANA at 1 3 4 5 9 13 14 15 | 177 a.u. |
| 2'F-ANA at 2 6 9 12 13 15 | 455 a.u. |

Series 3
Target: Histone acetyltransferase KAT6A, both winged helices, GST fusion (KAT6A, Homo sapiens, UniProt Q92794, residues 1-181)
Method: protein binding microarray
Form: double-stranded DNA, one strand shown
Sample: in vitro
Tested at: not given
Setting: 8-mer, flanks averaged, mean of 2 arrays, mostly near background
Reference: not given
Direction: higher = stronger binding
Target sequence (chain): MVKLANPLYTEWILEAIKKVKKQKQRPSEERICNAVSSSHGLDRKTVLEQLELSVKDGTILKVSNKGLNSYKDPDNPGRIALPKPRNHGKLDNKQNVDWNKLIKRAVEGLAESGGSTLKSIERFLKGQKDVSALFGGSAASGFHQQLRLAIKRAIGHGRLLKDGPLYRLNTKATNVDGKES
| Sequence | E-score |
| --- | --- |
| AAGTATTG | -0.198 |
| CATAATTC | -0.00573 |
| ATGACCAG | -0.15 |
| GAGTGGGA | -0.17 |
| TAAACGGA | 0.248 |
| CGACGCTC | 0.216 |
| AACACGTT | -0.0576 |
| CGGGATTC | 0.212 |

Mixed results
| Molecule | target | assay | system | setting | scale | endpoint | result |
| --- | --- | --- | --- | --- | --- | --- | --- |
| PhoQ, residues 284 288 289 292 302 303 SSTLLI | PhoP, residues 12 14 15 18 19 NMSFL (Escherichia coli, UniProt P23836) | Sort-seq, refers to: YFP reporter | E. coli | PhoQ-PhoP variant library, added: 10 µM Mg2+ | reference: high Mg2+ state, higher = stronger signaling | fold induction | 12.7 |

For quick reference, copied from above (series 2):
| Modification | mean fluorescence intensity |
| --- | --- |
| 2'F-ANA at 2 3 4 6 7 9 10 | 215 a.u. |
| 2'F-ANA at 2 3 4 5 6 8 11 12 14 | 55.1 a.u. |
| 2'F-ANA at 1 2 3 4 8 9 10 12 13 15 | 70.2 a.u. |
| 2'F-ANA at 1 3 4 5 6 10 12 | 49.2 a.u. |
| 2'F-ANA at 3 4 5 6 12 | 218 a.u. |
